Measured values from different studies.
Protocols differ between the studies behind these lines. ± marks the error that the study gave.
B1: C1S 438-688 S632A (Homo sapiens, UniProt P09871); chain IIGGSDADIKNFPWQVFFDNPWAGGALINEYWVLTAAHVVEGNREPTMYVGSTSVQTSRLAKSKMLTPEHVFIHPGWKLLEVPEGRTNFDNDIALVRLKDPVKMGPTVSPICLPGTSSDYNLMDGDLGLISGWGRTEKRDRAVRLKAARLPVAPLRKCKEVKVEKPTADAEAYVFTPNMICAGGEKGMDSCKGDAGGAFAVQDPNDKTKFYAAGLVSWGPQCGTYGLYTRVKNYVDWIMKTMQENSTPRED
B2: BRAF kinase 448-723 K723G/P722S/S720E/L716E/S713E/Q709R/L706S/A688R/Y673S/I666R/K630S/V600E/L588N/Q562R (Homo sapiens, UniProt P15056); sequence looked up; chain DDWEIPDGQITVGQRIGSGSFGTVYKGKWHGDVAVKMLNVTAPTPQQLQAFKNEVGVLRKTRHVNILLFMGYSTKPQLAIVTQWCEGSSLYHHLHASETKFEMKKLIDIARQTARGMDYLHAKSIIHRDLKSNNIFLHEDNTVKIGDFGLATEKSRWSGSHQFEQLSGSILWMAPEVIRMQDSNPYSFQSDVYAFGIVLYELMTGQLPYSNINNRDQIRFMVGRGSLSPDLSKVRSNCPKRMKRLMAECLKKKRDERPSFPRILAEIEELARELSG
B3: PUX6 269-435 (Arabidopsis thaliana, UniProt F4IXN6); chain VTYTVTIWRNGFTVDDDPFKSLDDPENAAFLEYMPEDNKFGVPTTTRSTSCSSQTHQELQTLAGSESTSTEPPLTTTQPPSMSSLVVDPAAPTTSIQLILADSTRIVTQFNTHHTIRDIRCFIDTSRPDGSKDYQLLIMGSPPTPLSDFDQTIEKAGIANSVLVQKF
B4: IgG L:I27A; V domains shown; VH QVQLVQSGAEVKKPGASVKVSCKASGYTFTNYGLSWVRQAPGQGLEWMGWISANNGDTNYGQEFQGRVTMTTDTSTSTAYMELRSLRSDDTAVYYCARDSSSSWARWFFDLWGRGTLVTVSS; VL SYVLTQPPSVSVAPGKTARITCGGNAIGSKLVHWYQQKPGQAPVLVIYDDGDRPSGIPERFSGSNSGNTATLTISRVEAGDEADYYCQVWDTGSDPVVFGGGTKLTVL
Sequence of UniProt Q9WTS8 (whole entry, looked up): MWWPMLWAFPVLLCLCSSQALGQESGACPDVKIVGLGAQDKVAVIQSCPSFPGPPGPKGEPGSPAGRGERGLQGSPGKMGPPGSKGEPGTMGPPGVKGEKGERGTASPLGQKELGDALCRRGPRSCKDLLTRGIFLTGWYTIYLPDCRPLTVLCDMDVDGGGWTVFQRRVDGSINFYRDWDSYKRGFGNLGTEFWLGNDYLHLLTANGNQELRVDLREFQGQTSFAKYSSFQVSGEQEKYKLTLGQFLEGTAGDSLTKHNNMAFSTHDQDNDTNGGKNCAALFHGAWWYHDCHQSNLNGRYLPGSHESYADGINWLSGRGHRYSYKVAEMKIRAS
Sequence of UniProt P05155 (whole entry, unmodified, looked up): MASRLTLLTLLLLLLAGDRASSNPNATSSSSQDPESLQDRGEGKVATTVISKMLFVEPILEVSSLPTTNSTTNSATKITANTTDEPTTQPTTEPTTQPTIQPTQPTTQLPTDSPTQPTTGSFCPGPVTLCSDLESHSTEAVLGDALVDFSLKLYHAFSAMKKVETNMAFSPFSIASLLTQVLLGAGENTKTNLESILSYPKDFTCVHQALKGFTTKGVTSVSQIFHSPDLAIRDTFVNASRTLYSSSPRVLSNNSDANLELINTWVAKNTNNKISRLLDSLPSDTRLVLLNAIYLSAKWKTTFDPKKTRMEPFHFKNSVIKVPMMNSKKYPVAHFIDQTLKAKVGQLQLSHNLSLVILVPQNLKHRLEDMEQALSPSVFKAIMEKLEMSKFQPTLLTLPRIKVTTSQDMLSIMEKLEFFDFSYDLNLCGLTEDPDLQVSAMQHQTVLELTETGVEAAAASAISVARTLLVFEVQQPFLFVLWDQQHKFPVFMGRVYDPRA
Sequence of UniProt Q61790 (whole entry, looked up): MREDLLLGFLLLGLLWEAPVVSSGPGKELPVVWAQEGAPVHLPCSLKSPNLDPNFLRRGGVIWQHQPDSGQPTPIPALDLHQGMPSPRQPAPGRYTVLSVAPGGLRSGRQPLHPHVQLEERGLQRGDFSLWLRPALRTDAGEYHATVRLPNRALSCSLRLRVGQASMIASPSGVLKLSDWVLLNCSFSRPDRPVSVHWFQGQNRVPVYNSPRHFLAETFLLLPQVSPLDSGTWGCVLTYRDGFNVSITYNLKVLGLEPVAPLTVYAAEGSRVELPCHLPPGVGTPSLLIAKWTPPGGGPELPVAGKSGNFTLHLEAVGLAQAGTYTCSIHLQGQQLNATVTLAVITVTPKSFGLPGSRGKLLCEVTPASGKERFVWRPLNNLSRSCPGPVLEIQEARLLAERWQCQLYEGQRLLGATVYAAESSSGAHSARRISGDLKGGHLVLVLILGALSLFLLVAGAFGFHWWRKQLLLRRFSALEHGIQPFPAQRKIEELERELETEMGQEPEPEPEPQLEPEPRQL
Sequence of UniProt P48356 (whole entry, unmodified, looked up): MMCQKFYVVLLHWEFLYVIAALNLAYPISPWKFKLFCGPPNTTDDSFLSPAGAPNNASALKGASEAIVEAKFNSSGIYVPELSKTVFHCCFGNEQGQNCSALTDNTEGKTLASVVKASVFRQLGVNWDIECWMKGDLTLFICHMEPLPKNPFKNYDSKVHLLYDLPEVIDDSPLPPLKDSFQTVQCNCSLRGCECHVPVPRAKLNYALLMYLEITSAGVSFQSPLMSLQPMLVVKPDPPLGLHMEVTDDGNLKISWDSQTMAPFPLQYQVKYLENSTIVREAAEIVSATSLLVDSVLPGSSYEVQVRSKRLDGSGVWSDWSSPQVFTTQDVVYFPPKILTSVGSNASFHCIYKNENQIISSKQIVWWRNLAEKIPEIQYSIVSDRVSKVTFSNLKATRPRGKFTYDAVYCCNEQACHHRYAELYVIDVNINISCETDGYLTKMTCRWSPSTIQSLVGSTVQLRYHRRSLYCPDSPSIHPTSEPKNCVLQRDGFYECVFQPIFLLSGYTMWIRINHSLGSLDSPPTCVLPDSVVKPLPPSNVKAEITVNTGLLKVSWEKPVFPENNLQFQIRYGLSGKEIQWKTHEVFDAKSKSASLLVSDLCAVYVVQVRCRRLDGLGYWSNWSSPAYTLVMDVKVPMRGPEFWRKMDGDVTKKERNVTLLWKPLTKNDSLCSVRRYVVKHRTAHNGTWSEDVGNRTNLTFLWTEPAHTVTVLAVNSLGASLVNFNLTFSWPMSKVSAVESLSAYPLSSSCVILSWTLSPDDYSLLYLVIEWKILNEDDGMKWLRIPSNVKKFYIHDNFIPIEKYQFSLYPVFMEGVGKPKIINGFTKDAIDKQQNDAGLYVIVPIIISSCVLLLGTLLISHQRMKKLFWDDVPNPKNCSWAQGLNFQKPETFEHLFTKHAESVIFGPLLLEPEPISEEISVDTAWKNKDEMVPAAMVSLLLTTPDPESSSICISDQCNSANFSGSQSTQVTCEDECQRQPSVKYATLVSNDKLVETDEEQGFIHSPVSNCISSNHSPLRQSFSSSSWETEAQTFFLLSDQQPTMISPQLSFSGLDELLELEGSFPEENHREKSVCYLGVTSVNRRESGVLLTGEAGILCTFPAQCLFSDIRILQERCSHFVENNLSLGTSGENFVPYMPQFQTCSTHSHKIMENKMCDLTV
Sequence of UniProt P54609 (whole entry, looked up): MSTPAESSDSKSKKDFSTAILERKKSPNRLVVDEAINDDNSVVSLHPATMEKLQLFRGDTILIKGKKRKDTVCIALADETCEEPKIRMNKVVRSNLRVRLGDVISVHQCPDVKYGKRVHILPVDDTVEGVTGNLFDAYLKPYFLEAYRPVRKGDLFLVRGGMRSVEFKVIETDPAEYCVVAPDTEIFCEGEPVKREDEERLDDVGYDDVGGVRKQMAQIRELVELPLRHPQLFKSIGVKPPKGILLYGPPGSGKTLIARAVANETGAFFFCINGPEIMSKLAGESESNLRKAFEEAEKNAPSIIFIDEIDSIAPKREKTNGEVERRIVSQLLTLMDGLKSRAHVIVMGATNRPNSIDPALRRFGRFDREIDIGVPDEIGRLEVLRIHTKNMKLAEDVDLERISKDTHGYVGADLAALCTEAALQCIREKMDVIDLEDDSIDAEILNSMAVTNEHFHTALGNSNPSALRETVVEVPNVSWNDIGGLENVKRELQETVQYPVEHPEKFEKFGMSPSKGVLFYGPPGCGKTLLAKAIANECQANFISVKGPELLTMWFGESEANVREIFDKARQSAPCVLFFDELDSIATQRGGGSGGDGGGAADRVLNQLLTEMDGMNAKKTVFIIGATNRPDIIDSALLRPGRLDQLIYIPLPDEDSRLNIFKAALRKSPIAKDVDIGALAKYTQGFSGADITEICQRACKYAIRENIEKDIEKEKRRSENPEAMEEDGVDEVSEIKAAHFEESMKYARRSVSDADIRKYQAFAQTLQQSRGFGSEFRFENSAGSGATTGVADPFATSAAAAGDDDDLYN
Sequence of UniProt P97287 (whole entry, looked up): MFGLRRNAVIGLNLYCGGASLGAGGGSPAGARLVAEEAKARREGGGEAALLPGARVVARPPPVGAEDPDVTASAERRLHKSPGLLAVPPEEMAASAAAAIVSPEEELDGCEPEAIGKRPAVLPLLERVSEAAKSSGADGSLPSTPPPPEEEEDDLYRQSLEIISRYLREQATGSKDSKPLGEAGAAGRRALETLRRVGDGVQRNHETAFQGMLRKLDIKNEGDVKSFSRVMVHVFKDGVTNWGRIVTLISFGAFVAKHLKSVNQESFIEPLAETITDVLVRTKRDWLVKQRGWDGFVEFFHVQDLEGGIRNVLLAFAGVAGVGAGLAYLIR
Sequence of UniProt Q9Z1P8 (whole entry, looked up): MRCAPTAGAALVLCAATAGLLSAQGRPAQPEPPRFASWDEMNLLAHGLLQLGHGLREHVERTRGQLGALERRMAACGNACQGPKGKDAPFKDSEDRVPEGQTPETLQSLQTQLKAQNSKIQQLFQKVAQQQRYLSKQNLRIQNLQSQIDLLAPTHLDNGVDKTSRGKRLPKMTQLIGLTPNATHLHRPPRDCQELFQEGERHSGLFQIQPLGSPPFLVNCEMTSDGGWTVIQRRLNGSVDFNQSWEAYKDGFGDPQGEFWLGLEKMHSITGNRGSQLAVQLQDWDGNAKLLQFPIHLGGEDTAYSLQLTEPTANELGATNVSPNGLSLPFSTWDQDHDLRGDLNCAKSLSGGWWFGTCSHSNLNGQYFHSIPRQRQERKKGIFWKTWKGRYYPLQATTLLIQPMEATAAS

The koff of `B1 (C1S 438-688 S632A)` is reported as 0.0915 s⁻¹ (SERPING1 111-500 H334A/Q338A (Homo sapiens, UniProt P05155); SPR; with: Ca2+).
With `EEEWAREFGAQLRRAADDLNAQYERRR (PUMA residues 130-156 M144A/I137F; N-acetyl, C-terminal amide)` the koff was 0.0275 ± 0.0022 s⁻¹ (Mcl1 152-308 (Mus musculus, UniProt P97287); SPR; peptide).
With `B2` the koff was 0.00618 s⁻¹ (MAP2K1 (Homo sapiens, UniProt Q02750); BLI).
For `B3 (PUX6 269-435)`, the koff was 0.00062 s⁻¹ (CDC48A 1-190 (Arabidopsis thaliana, UniProt P54609); BLI; 25 °C).
The koff of `B4 (IgG L:I27A)` is reported as 0.00257 s⁻¹ (IL13 fragment (Homo sapiens); SPR; antibody).
For `ANGPTL4 (Mus musculus, UniProt Q9Z1P8)`, the koff was 0.002 s⁻¹ (Lepr 22-839 (Mus musculus, UniProt P48356); SPR).
`ficolin-A mature (Rattus norvegicus, UniProt Q9WTS8)` has a koff of 0.000769 s⁻¹ (C1r/C1s full-length tetramer (Homo sapiens); SPR; with: CaCl2 140 mM).
With `FGB dimer (Homo sapiens)` the koff was 0.00811 s⁻¹ (CDH2 extracellular domain 1-551 (Homo sapiens); SPR; Langmuir fit, with: CaCl2).
`CVPMTYRAC (cyclic peptide; cyclic, NOTA-Bn conjugated)` gave a koff of 0.00239 s⁻¹ (Lag3 (Mus musculus, UniProt Q61790); SPR; peptide).
